Literature values as cited in several papers.
Numbered parts are unrelated; values within a part may stem from several laboratories. ± marks the error that the study gave.
Chain of UniProt Q9ZMY2 (whole entry, looked up): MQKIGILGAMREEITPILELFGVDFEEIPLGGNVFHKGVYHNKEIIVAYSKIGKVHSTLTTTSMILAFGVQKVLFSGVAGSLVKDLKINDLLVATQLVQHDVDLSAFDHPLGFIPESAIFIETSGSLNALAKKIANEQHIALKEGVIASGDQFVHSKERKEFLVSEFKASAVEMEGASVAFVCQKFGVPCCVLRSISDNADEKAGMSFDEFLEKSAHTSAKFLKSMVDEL
Chain of UniProt P04789 (whole entry, looked up): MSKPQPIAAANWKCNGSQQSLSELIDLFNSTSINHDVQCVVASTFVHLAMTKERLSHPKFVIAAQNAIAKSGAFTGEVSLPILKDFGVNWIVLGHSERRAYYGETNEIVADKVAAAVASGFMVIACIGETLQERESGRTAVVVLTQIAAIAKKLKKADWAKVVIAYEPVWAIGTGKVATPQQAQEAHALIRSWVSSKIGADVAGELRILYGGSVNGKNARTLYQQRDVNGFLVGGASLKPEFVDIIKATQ
Chain of UniProt Q8VQF6 (whole entry, looked up): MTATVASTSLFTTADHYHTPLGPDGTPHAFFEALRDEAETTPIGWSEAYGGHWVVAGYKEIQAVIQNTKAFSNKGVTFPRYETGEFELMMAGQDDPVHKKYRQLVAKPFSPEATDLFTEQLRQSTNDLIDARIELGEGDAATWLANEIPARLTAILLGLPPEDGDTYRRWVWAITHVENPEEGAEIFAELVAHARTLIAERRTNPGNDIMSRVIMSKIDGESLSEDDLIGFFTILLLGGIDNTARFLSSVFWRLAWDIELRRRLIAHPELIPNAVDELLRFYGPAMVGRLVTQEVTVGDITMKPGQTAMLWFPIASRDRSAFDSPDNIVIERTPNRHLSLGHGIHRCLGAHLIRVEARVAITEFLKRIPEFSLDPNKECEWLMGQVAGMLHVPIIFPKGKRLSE

Study 1
Target: HLA class I histocompatibility antigen, C alpha chain, allele C*04:01 (Homo sapiens, UniProt P10321)
Read-out: peptide-MHC binding
Molecule type: peptide
Sequence | IC50 [µM]
YPDPVIKV | > 20
ELFARSSDPR | > 20
KAMRPWQSF | > 5
RYNCKCCWF | 20
RRFNRTKPM | > 5
LYPTFYCLF | 3.35
YIDISDVKV | 20
YTITSLFSL | > 5
LEYFQFVKKLL | > 20
FQILHDRFF | > 20
RENHTEGLL | > 5
MVRVLTVIKEY | > 20
YFYYNAFHWAI | > 20
RMILPMSRAFR | > 20
YTPEQWWPF | 20
RYSHWTKL | > 20
RARRLRRAL | > 5
RYAYTSVEF | 20
FLLPILSQIYT | > 20
VALFSSCPVAY | > 20
KVADVDLAVPV | > 20
AQIGIFAPV | > 5
HYMLKHLVW | > 5
FYYNAFHW | > 20
YFDPANGKF | 0.00374

Single results of other studies
SMILES | tested on | test | test system | setting | how to read | measurement | value
NCc1cc(=O)[nH]o1 | GABA-A receptor |  |  |  |  | Kd | 0.05 µM
COC(=O)C[C@@H]1N=C(c2ccc(Cl)cc2)c2c(sc(C)c2C)-n2c(C)nnc21 | Bromodomain-containing protein 4, BD2 (BRD4, Homo sapiens, UniProt O60885) |  |  |  |  | Kd | 0.0254 µM
OC[C@H]1OC(O)[C@H]([18F])[C@@H](O)[C@@H]1O (some centres unmarked) |  |  | rat | intranasal, 30 min |  | dose swallowed | ~50%
CCN(CC)N=O |  | fingerprint mutation, item: T>C substitution | mouse, liver | concentration not given |  | mutation frequency | increased
c1c[nH]cn1 | metmyoglobin |  |  |  |  | association rate constant | 160 M⁻¹ s⁻¹
CCCCCc1cc(O)c(C/C=C(\C)CCC=C(C)C)c(O)c1 | CYP1A2, human | enzyme activity, inhibitor | human liver microsomes | 10 µM |  | inhibition | inhibited
COc1c(/C=C/c2ccc(NS(C)(=O)=O)cc2)cc(-n2ccc(=O)[nH]c2=O)cc1C(C)(C)C | hepatitis C virus | viral replication, replicon | genotype 1b |  |  | EC50 | 0.0018 µM
O=C[C@H](O)COP(=O)(O)O | Triosephosphate isomerase, glycosomal (Trypanosoma brucei brucei, UniProt P04789) | substrate |  | pH 4.9 |  | Km | 3.8 mM
c1cc([C@H]2CC[C@]3(CC2)OO[C@]2(O3)C3CC4CC(C3)CC2C4)ccc1OCCN1CCOCC1 |  |  | male Sprague-Dawley rat | oral, 10 mg/kg |  | oral bioavailability | 76%
CSC[C@H]1CN(Cc2c[nH]c3c(N)ncnc23)C[C@@H]1O | Aminodeoxyfutalosine nucleosidase (Helicobacter pylori, UniProt Q9ZMY2) |  |  | initial complex |  | Ki | 0.00019 ± 3e-05 µM
CC12CCC(CC1)C(C)(C)O2 | 1,8-cineole 2-endo-monooxygenase (cinA, Citrobacter braakii, UniProt Q8VQF6) |  |  |  |  | Kd | 0.7 µM
COC1=C[C@]23CCN(C)[C@H](Cc4ccc(OC)c(O)c42)C3=CC1=O | hepatitis B virus | antigen secretion, item: HBeAg | HepG2.2.15 |  |  | IC50 | 2.81 µM
COc1cc2c3c(n(CCCNCCO)c(=O)c2cc1OC)-c1cc2c(cc1C3=O)OCO2 |  |  | dog | mean, same time points |  | tumour-to-plasma concentration ratio | ≥ 100
OCCOCCN1CCN(C(c2ccccc2)c2ccc(Cl)cc2)CC1 (centres unmarked) | hepatitis C virus | viral replication, RT-qPCR | Huh-7.5.1 |  |  | EC50 | 0.0503 µM
CCCSc1ccc2nc(NC(=O)OC)[nH]c2c1 | Trichuris muris |  | L3 larvae |  |  | IC50 | 200 µg/mL
CC(C)(N)CNC(=O)C[C@H]1CC[C@]2(CC1)OO[C@]1(O2)C2CC3CC(C2)CC1C3 |  |  | male Sprague-Dawley rat | oral, 10 mg/kg |  | oral bioavailability | 13%
CC(=O)N(C)[C@H]1CCN(C(=O)c2cnc3c(c2)C[C@](C)(c2ccc(F)cc2)N3)C1 |  |  | Wistar Han rats, female | 50 mg/kg/day, NOAEL dose |  | Cmax | 50.5 µM
CCc1c2c(nc3ccc(OC(=O)N4CCC(N5CCCCC5)CC4)cc13)-c1cc3c(c(=O)n1C2)COC(=O)[C@]3(O)CC |  | item: maternal and offspring development | rat | perinatal and lactation dosing |  | NOAEL | 1.2 mg/kg
CN1CCN(C(c2ccccc2)c2ccc(Cl)cc2)CC1 (centres unmarked) | hepatitis C virus | viral replication, RT-qPCR | Huh-7.5.1 |  |  | EC50 | 0.0331 µM
CN(C)C(N)=NCCC[C@H](N)C(=O)O | histone reader proteins | CH3-π interaction |  |  |  | LFER slope | -0.04
C=C(CO)C(=O)O[C@H]1CC(=C)[C@@H]2C[C@H](O)C(=C)[C@@H]2[C@H]2OC(=O)C(=C)[C@@H]21 | hepatitis B virus | HBsAg secretion | HepG2.2.15 |  |  | IC50 | 5.3 µM
CCCCCc1cc(O)c2c(c1)OC(C)(C)[C@@H]1CCC(C)=C[C@@H]21 | CYP2B6, human | enzyme activity, inhibitor | human liver microsomes | 10 µM |  | inhibition | inhibited
CCCC(C(=O)c1ccc2c(c1)OCO2)N1CCCC1.Cl (racemic) | dopamine transporter, rat | inhibitor | rat brain tissue |  | baseline: cocaine | relative potency | 50 fold
CCc1c2c(nc3ccc(O)cc13)-c1cc3c(c(=O)n1C2)COC(=O)[C@]3(O)CC | cytochrome P450 isoenzymes |  |  | concentration not given |  | CYP inhibition | no inhibition
CC[C@H](C)CCCCC(=O)N[C@@H](CCN)C(=O)N[C@H](C(=O)N[C@@H](CCN)C(=O)N[C@H]1CCNC(=O)[C@H]([C@@H](C)O)NC(=O)[C@H](CCN)NC(=O)[C@H](CCN)NC(=O)[C@H](CC(C)C)NC(=O)[C@@H](CC(C)C)NC(=O)[C@H](CCN)NC1=O)[C@@H](C)O |  | nephrotoxicity risk | patients, plasma |  |  | steady-state average concentration threshold | > 2 mg/L

A few entries again (study 1):
Sequence | IC50 [µM]
LEYFQFVKKLL | > 20
FQILHDRFF | > 20
RENHTEGLL | > 5
MVRVLTVIKEY | > 20
YFYYNAFHWAI | > 20
RMILPMSRAFR | > 20
YTPEQWWPF | 20
RYSHWTKL | > 20
